Assay results of several laboratories.
Each line is one published result; not all experiments were run side by side. ± marks the error that the study gave.
Target: Acetylcholinesterase (ache, Electrophorus electricus, UniProt O42275)
UniProt O42275, sequence (whole entry, looked up): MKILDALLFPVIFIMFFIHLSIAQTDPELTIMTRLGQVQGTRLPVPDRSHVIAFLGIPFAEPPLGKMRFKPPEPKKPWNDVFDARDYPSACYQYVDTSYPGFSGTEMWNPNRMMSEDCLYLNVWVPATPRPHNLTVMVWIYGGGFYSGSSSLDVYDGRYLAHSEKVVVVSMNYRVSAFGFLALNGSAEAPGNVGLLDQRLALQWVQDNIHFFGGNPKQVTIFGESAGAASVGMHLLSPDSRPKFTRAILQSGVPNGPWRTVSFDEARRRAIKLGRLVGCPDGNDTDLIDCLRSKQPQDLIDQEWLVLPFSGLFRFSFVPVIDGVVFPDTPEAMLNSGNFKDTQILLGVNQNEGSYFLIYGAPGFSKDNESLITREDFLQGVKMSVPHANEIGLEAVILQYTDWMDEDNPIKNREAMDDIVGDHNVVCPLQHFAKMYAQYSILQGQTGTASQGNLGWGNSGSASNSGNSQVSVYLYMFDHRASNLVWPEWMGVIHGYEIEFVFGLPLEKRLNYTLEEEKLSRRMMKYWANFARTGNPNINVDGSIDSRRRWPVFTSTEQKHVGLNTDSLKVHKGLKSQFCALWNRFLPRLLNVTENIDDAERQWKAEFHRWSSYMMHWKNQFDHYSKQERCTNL

COc1ccc(Nc2c3c(nc4ccccc24)CCCC3)nc1 — inhibition (enzyme activity, inhibitor, Ellman; 50 µM): 66.5%
O=c1c(NCc2ccc(O)cc2)c(NC2CCN(Cc3ccccc3)CC2)c1=O — inhibition (enzyme activity, inhibitor, Ellman; 25 µM): 54.9%
C[n+]1cc2[nH]c3ccccc3c2cc1C(=O)[O-] — inhibition (enzyme activity, inhibitor; 0.1 µg/mL): 0%
O=c1c(NCCc2ccc(Br)cc2)c(NC2CCN(Cc3ccccc3)CC2)c1=O — inhibition (enzyme activity, inhibitor, Ellman; 25 µM): 45.6%
c1ccc2ncc(Nc3c4c(nc5ccccc35)CCCC4)cc2c1 — inhibition (enzyme activity, inhibitor, Ellman; 100 µM): 48.3%
O=C(CCn1cnc2sc3c(c2c1=O)CCCC3)NCCc1nc2ccccc2[nH]1 — inhibition (Ellman method; 10 µM): 9.8 ± 3.4%
O=S(=O)(F)CCc1cn(Cc2cccc(-c3ccccc3)c2)nn1 — inhibition (20 µM): 26.5%
Cn1c(=N)c2[nH]c(=O)n(C)c2n(C)c1=O — inhibition (enzyme activity, inhibitor; 0.1 µg/mL): 62%
CCOc1ccc2[nH]c(SCC(=O)Nc3ccc(OC(F)F)cc3)nc2c1 — inhibition (Ellman method; 10 µM): 1.79 ± 0.59%
COc1ccc(Nc2c(NC3CCN(Cc4ccccc4)CC3)c(=O)c2=O)cc1 — inhibition (enzyme activity, inhibitor, Ellman; 12.5 µM): 59%
c1cncc(Nc2c3c(nc4ccccc24)CCCC3)c1 — inhibition (enzyme activity, inhibitor, Ellman; 50 µM): 46.4%
O=c1c(Nc2ccc(O)cc2)c(NC2CCN(Cc3ccccc3)CC2)c1=O — inhibition (enzyme activity, inhibitor, Ellman; 25 µM): 66.7%
O=C(O)c1cccc(Nc2cc(N3CCN(c4cccc(C(F)(F)F)c4)CC3)c3noc4c3c2C(=O)c2ccccc2-4)c1 — inhibition (10 µM): > 20%
O=c1c(Nc2ccccc2)c(NC2CCN(Cc3ccccc3)CC2)c1=O — inhibition (enzyme activity, inhibitor, Ellman; 12.5 µM): 48.8%
Cc1cccnc1Nc1c2c(nc3ccccc13)CCCC2 — inhibition (enzyme activity, inhibitor, Ellman; 50 µM): 52.5%
COc1ccc(CNc2c(NC3CCN(Cc4ccccc4)CC3)c(=O)c2=O)cc1OC — inhibition (enzyme activity, inhibitor, Ellman; 12.5 µM): 60.9%
Cc1ccc(Nc2c3c(nc4ccccc24)CCCC3)cc1 — inhibition (enzyme activity, inhibitor, Ellman; 100 µM): 72.2%
CCc1ccc(Nc2c(NC3CCN(Cc4ccccc4)CC3)c(=O)c2=O)cc1 — inhibition (enzyme activity, inhibitor, Ellman; 25 µM): 50.4%
O=C(CCCc1nc2ccccc2c(=O)[nH]1)Nc1ccc(OC(F)F)cc1 — inhibition (Ellman method; 10 µM): 2.95 ± 1.71%
Cc1cccnc1Nc1c2c(nc3ccccc13)CCC(C)C2 (stereo not shown) — inhibition (enzyme activity, inhibitor, Ellman; 50 µM): 89.8%
COc1ccc(Nc2c(NC3CCN(Cc4ccccc4)CC3)c(=O)c2=O)cc1OC — inhibition (enzyme activity, inhibitor, Ellman; 25 µM): 62.4%
Cc1ccc(NCCCC(=O)NN=Cc2ccc3ccc4cccc5ccc2c3c45)cc1 — inhibition (Ellman method; 10 µM): 8.16 ± 1.25%
COc1ccc2cc(Nc3c4c(nc5ccccc35)CCCC4)ccc2c1 — inhibition (enzyme activity, inhibitor, Ellman; 100 µM): 70.4%
COCc1cc(C)nc(SCC[N+](C)(C)CC(=O)Nc2cccc(C(F)(F)F)c2)c1C#N — inhibition (10 µM): 8.28 ± 2.16%
CC(C)=C[C@H]1C[C@](C)(O)[C@@H]2[C@H]3CC[C@@H]4[C@@]5(C)CC[C@H](O[C@@H]6OC[C@H](O)[C@H](O[C@@H]7O[C@H](CO)[C@@H](O)[C@H](O)[C@H]7O)[C@H]6O[C@@H]6O[C@@H](CO)[C@H](O)[C@H]6O)C(C)(C)[C@@H]5CC[C@@]4(C)[C@@]34CO[C@@]2(C4)O1 — inhibition (enzyme activity, inhibitor, Ellman; 100 µM): 87%

Repeated from above:
C[n+]1cc2[nH]c3ccccc3c2cc1C(=O)[O-] — inhibition (enzyme activity, inhibitor; 0.1 µg/mL): 0%
O=c1c(NCCc2ccc(Br)cc2)c(NC2CCN(Cc3ccccc3)CC2)c1=O — inhibition (enzyme activity, inhibitor, Ellman; 25 µM): 45.6%
c1ccc2ncc(Nc3c4c(nc5ccccc35)CCCC4)cc2c1 — inhibition (enzyme activity, inhibitor, Ellman; 100 µM): 48.3%
